Published values from different studies.
Every numbered part comes from another study and shows a few of its results, in no order. Changes are numbered by the printed parent chain.

Sample 1 — method: protein binding microarray; form: double-stranded DNA, one strand shown; matrix: in vitro; tested at: not given; baseline: not given; direction: higher = stronger binding
Target: Histone acetyltransferase KAT6A, both winged helices, GST fusion (KAT6A, Homo sapiens, UniProt Q92794, residues 1-181)
Setting: 8-mer, flanks averaged, mean of 2 arrays, mostly near background
Construct (chain): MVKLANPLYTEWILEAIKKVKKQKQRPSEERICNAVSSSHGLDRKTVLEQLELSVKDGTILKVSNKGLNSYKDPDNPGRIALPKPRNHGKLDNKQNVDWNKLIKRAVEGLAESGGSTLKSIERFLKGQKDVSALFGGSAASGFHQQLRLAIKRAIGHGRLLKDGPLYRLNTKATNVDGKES
`AGAGTTTA` gave an E-score of -0.112.
`AAGGACCC` has an E-score of -0.0429.
The E-score of `AAATCTGA` is reported as 0.0375.
The E-score of `CCAGGAGA` is reported as -0.212.
For `AATCAAGT`, the E-score was -0.0532.
For `GCATCGAC`, the E-score was -0.0124.

Sample 2 — target: CCNB3, cyclin fold, Cln2 fusion (human); method: yeast growth competition, sequencing; matrix: yeast; setting: weak parent motif; baseline: not given; direction: higher = stronger binding
Starting sequence: RB1 docking peptide (human); PKPLKKLRFDIEG
`PNPLKKLRFDIEG [K2N]` — result for “normalised enrichment score”: 0.164.
`PKPLKKLRFDIFG [E12F]` — result for “normalised enrichment score”: 0.217.
`NKPLKKLRFDIEG [P1N]`: “normalised enrichment score” -0.43.

Sample 3 — method: RNA Bind-n-Seq; form: RNA; matrix: in vitro; tested at: 200 nM; setting: whole 134-nt RNA, ends assumed; together with: 150 mM LiCl; baseline: input library; direction: higher = stronger binding; each molecule: 7-deaza-guanosine replaces G
Target: Fragile X messenger ribonucleoprotein 1, C-terminal low-complexity region (Fmr1, Mus musculus, UniProt P35922)
`GGGAGUUCUACAGUCCGACGAUCUCCUGUGCUACACAUCGUAUGUACCGAAUCGGCCCCCCCGGCCCCCCCGGCCCCCCCGGAAAGUAUUAUGUUACGCCGUUCGGAUCUGCAUGGAAUUCUCGGGUGUCAAGG` gave a log2 enrichment of 1.18.
For `GGGAGUUCUACAGUCCGACGAUCGGUGGAAUCCAUAGAGCUCCCCAUGGACAACAAGACCAAUAAGAGGCGUGGGUUCUGCUUUAUUACCUUUAAGGAAGAAGAACCAGUGAAUGGAAUUCUCGGGUGUCAAGG`, the log2 enrichment was 0.404.
`GGGAGUUCUACAGUCCGACGAUCAAGUCCUGUGCUACACAUCGUAUGUACCGAAUCGGGGAAAGGGAAAGGGGAAAGGGAAAGUAUUAUGUUACGCCGUUCGGAUCUGCACUUUGGAAUUCUCGGGUGUCAAGG` has a log2 enrichment of 0.178.
The log2 enrichment of `GGGAGUUCUACAGUCCGACGAUCCCUCAAGUCCUGUGCUACACAUCGUAUGUACCGAAUCGGGCGGGCGGGCGGGGAAAGUAUUAUGUUACGCCGUUCGGAUCUGCACUUCCAUGGAAUUCUCGGGUGUCAAGG` is reported as -1.04.

Single results of other studies
`PhoQ, residues 284 288 289 292 302 303 TLMATV` has a fold induction of 13.8 (PhoP, residues 12 14 15 18 19 FWNTL (Escherichia coli, UniProt P23836); Sort-seq, item: YFP reporter; E. coli; PhoQ-PhoP variant library, together with: 10 µM Mg2+; baseline: high Mg2+ state, higher = stronger signaling).

For quick reference, copied from above (sample 1):
For `GCATCGAC`, the E-score was -0.0124.
